Experimental data of several laboratories.
A part holds a random share of what one study measured.

Sample 1
Target: Ras GTPase-activating protein-binding protein 1, full length (G3BP1, Homo sapiens, UniProt Q13283)
UniProt Q13283, sequence (whole entry, looked up): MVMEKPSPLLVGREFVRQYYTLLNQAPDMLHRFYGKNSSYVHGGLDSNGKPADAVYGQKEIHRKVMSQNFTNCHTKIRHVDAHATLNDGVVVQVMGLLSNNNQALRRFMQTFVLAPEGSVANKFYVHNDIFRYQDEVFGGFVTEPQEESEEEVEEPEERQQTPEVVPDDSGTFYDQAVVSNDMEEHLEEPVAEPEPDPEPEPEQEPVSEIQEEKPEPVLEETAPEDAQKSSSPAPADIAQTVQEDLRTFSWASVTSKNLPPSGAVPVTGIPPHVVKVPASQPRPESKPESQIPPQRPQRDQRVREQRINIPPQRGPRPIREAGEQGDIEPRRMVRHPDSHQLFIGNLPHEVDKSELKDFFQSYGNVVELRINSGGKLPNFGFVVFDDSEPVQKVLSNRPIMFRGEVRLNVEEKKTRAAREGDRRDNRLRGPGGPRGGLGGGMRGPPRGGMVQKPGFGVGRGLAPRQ
Technique: RNA Bind-n-Seq
Molecule type: RNA
Sample: in vitro
Tested at: 200 nM
Setting: whole 134-nt RNA, ends assumed
Added: 150 mM KCl
Baseline: input library
Reading: higher = stronger binding
| Sequence | log2 enrichment |
| --- | --- |
| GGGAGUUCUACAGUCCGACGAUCCACAGGCAACACGCACCCACACAGACACAGAGGGAAGGGGUUGGGAUGGGGACAGGGUGCACAGCAGGGCGGGGUAGGACCCCAGCCCCUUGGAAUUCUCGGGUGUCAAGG | 1.8 |
| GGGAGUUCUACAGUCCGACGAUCUGGCCCUGGUGGCAUGCGGGGAGGAAUAGGUGGCCUCAUGGAUCGUGGUGGUCCCGGUGGAAUGUUCAGAGGUGGCCGUGGUGGAGACAGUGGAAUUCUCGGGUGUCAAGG | 0.18 |
| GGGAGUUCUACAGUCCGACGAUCAGUCCUGUGCUACACAUCGUAUGUACCGAAUCAAAUUUUUAAAUUUAAACCCCCAAAAAAGUAUUAUGUUACGCCGUUCGGAUCUGCACUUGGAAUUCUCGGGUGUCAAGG | -0.529 |
| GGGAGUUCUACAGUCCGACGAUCCUCAAGUCCUGUGCUACACAUCGUAUGUACCGAAUCGGAAAAAAAGGAGGUGGAAAGUAUUAUGUUACGCCGUUCGGAUCUGCACUUCCAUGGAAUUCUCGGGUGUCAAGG | -0.457 |
| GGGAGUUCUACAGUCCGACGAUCGCAGGAAGUAAAAACAAAUGGAAAUGCUUCGGAUAGUGGCAGGGGUGGGGGUUGCUAAGGAAAGGGUGGGAUGAGAGUGGGUAAAGAGUUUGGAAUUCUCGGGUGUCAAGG | 0.801 |
| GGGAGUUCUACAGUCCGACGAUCUCCUGUGCUACACAUCGUAUGUACCGAAUCAAAUUUUUAAACCCCCAAACCCCCCCAAAAAAGUAUUAUGUUACGCCGUUCGGAUCUGCAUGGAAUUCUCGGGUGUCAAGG | 0.108 |
| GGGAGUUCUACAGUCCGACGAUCGCAGGAAGUAAAAACAAAUGGAAAUGCUUCGGAUAGUGGCAGGGGUGGGGGAUGCUAAGGAAAGGGUGGGAUGGGAGUGGGUAAAGAGUUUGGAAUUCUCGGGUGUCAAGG | 1.05 |
| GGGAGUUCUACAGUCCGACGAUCCAAGUCCUGUGCUACACAUCGUAUGUACCGAAUCGGAAAGGUUUUUGGUUUUUGGAAAGUAUUAUGUUACGCCGUUCGGAUCUGCACUUCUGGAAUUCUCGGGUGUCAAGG | -1.28 |
| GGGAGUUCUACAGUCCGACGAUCAAGUCCUGUGCUACACAUCGUAUGUACCGAAUCGGGUUUUUUUGGGAGGGAAAGGGAAAGUAUUAUGUUACGCCGUUCGGAUCUGCACUUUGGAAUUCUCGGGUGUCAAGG | 0.065 |

Sample 2
Target: Prothrombin, mature alpha-thrombin (F2, Homo sapiens, UniProt P00734)
Technique: aptamer microarray, sandwich
Molecule type: DNA with 2'F-ANA
Sample: in vitro
Tested at: 200 nM
Setting: whole 15-mer aptamer, many near background
Added: Cy3 exosite-II aptamer, 400 nM
Reading: higher = stronger binding
Sequence: GGTTGGTGTGGTTGG
| Modification | mean fluorescence intensity [a.u.] |
| --- | --- |
| 2'F-ANA at 6 8 10 12 14 | 99 |
| 2'F-ANA at 2 3 4 5 12 13 | 146 |
| 2'F-ANA at 1 3 5 10 11 13 14 | 48 |
| 2'F-ANA at 1 2 6 10 14 | 48.3 |
| 2'F-ANA at 4 5 6 7 9 10 11 12 14 15 | 46.7 |
| 2'F-ANA at 2 3 6 7 8 10 11 14 15 | 234 |
| 2'F-ANA at 3 4 5 6 8 11 13 15 | 119 |
| 2'F-ANA at 1 2 3 6 9 11 13 | 147 |
| 2'F-ANA at 1 2 4 5 6 8 10 11 12 13 | 49.9 |
| 2'F-ANA at 1 2 5 7 10 14 | 64 |
| 2'F-ANA at 2 5 6 10 11 13 | 45.3 |
| 2'F-ANA at 1 6 10 11 12 14 15 | 46.7 |
| 2'F-ANA at 2 3 8 10 11 14 15 | 264 |
| 2'F-ANA at 2 4 5 7 8 9 13 15 | 84.2 |
| 2'F-ANA at 2 3 5 7 8 9 10 11 | 59.1 |
| 2'F-ANA at 1 3 5 10 12 13 15 | 46 |
| 2'F-ANA at 1 2 3 4 5 6 12 14 | 48 |
| 2'F-ANA at 3 4 6 7 8 9 10 11 12 13 14 | 162 |
| 2'F-ANA at 1 4 5 6 7 11 12 13 | 64.6 |
| 2'F-ANA at 3 5 6 15 | 109 |
| 2'F-ANA at 4 6 10 11 12 14 | 58.6 |
| 2'F-ANA at 1 2 3 8 11 12 15 | 418 |
| 2'F-ANA at 1 10 11 12 13 15 | 70.3 |
| 2'F-ANA at 1 5 6 7 8 9 10 11 12 13 14 | 49.4 |

Sample 3
Target: Histone acetyltransferase KAT6A, both winged helices, GST fusion (KAT6A, Homo sapiens, UniProt Q92794, residues 1-181)
Technique: protein binding microarray
Molecule type: double-stranded DNA, one strand shown
Sample: in vitro
Tested at: not given
Setting: 8-mer, flanks averaged, mean of 2 arrays, mostly near background
Baseline: not given
Reading: higher = stronger binding
Construct (chain): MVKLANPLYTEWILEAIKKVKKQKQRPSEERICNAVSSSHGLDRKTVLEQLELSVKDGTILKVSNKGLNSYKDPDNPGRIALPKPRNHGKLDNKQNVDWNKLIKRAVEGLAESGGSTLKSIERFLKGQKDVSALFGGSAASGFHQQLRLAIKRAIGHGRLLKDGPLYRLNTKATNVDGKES
| Sequence | E-score |
| --- | --- |
| AGCGCCTC | 0.239 |
| CATTAGGA | -0.117 |
| CTCATTTC | -0.0661 |
| AACTACAG | -0.00151 |
| TCTTGACA | -0.156 |
| ATTGACTG | -0.166 |
| ATGCAGCC | -0.156 |
| ATGCCTAG | -0.121 |
| GAGCGACC | 0.0251 |
| CGATCAGA | 0.0294 |
| CGATCATC | -0.0292 |
| AATGCTAC | -0.0123 |
| CAATTTCA | -0.0762 |
| GACGCTCC | 0.183 |
| TCTATGAA | -0.075 |
| AAGGGCAT | -0.3 |

Sample 4
Target: RNA binding protein fox-1 homolog 2, RRM domain, GST-SBP tag (RBFOX2, Homo sapiens, UniProt O43251-10, residues 100-194)
Technique: RNA Bind-n-Seq
Molecule type: RNA
Sample: in vitro
Tested at: 365 nM
Setting: natural RNA segment, single round, ends assumed
Baseline: no-protein control
Reading: higher = stronger binding
Target sequence (chain): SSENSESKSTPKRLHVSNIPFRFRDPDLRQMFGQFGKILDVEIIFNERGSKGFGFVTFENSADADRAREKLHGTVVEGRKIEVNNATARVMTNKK
| Sequence | RBNS enrichment (R) |
| --- | --- |
| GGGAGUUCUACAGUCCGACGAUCUCUGAUAGGCACAGUCCAGCCCAGUCUAGCACCACCUUUUAUGGUAGUUGAUCACUCUGAGGAGGUGGGUAGCAAGAUGAAUUAGGAGGUCAAGGUCACUGAGAGGAAUUUGGAAUUCUCGGGUGCCAA | 0.324 |
| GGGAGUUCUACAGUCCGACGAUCUUGUAUCUUUUCUCAGGUUAUGCCUUAUGUAACUGGAUAAUUUUAUUAUAAAAAUUUCUCUGAAACUCUCAUGUCUGUUUUGUGGUAUGGGCAGGAGUAGACAGAACUGGUGGAAUUCUCGGGUGCCAA | 1.05 |
| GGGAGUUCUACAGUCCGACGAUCGUAAUUUCCCAUUAGCAUAAUUUUAUGUUGUACAAGUAAAUUACAAUUCCAUCUCUAAUCUUGGAUAAUACUGGUUGGUUAACAAUAAAGUGACAAAAGCUCCCGCCUUGUGGAAUUCUCGGGUGCCAA | 0.496 |
| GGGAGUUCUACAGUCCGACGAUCAGAUGGCUACAGGAGCUUUUGGACUCACAGCCUCUGCUCUAGAGGUGUUGUGUAUGGGCUGCUAAUUGUUAUGAAUAAAAUACCCAACCCUAGGCUGCAGAGAAGCCCGUUGGAAUUCUCGGGUGCCAA | 1.33 |
| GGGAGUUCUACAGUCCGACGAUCUGAGACCCCAAGGGAAAGGAGAGAGUUGCUUCUCAUUUCUGAUUUUAUUGUGCUGUUACUCUGUCGAGUGGCUAUUAAAAUUGUCUUAUGCUCUUUGGGCUAAGAGGGGAUGGAAUUCUCGGGUGCCAA | 0.383 |
| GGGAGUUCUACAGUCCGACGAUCUUGUGUGGAAGCAAUGUGGAGUGAAUGAGCAUAUUUUGAUUUAAGCAAGGUAGCUUGGAAUACCUUUUUUAAAAACAACUGGAUAUAAAUAUGUCUGACAGGAUUGGAAUUGGAAUUCUCGGGUGCCAA | 4.65 |
| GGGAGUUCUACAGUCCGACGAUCCAUGCAAAAGGGAACGGGUGCACCAGAGACCCCUGUUUUGGCUGACAGACCAUAUGUCCCACCAGCUGGGGAAUCUGACAAGAGGACAUAGGUGGCACUCUUUUUUUAAAUGGAAUUCUCGGGUGCCAA | 0.767 |
| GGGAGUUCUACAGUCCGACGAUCGCACCAGCUACCUCUGCAGACUCCCAGUGACUCUCUCUUCACAAGCAGAUGAAGGGAAGGCUCAGAAGGGCAUCUCCUGUAGCUCCUGGCAGCUGGUUCUGGUGGCACUGUGGAAUUCUCGGGUGCCAA | 1.02 |

Excerpt of the above (sample 3):
| Sequence | E-score |
| --- | --- |
| ATGCCTAG | -0.121 |
| GAGCGACC | 0.0251 |
| CGATCAGA | 0.0294 |
| CGATCATC | -0.0292 |
| AATGCTAC | -0.0123 |
| CAATTTCA | -0.0762 |
| GACGCTCC | 0.183 |
| TCTATGAA | -0.075 |
